Measurements gathered from unrelated publications.
Protocols differ between the studies behind these lines. Numbers after ± are the reported error.

Under “percent of control”, `CNC(=O)C1CCN(c2cc(C)c(F)cc2NC(=O)c2ccc(-c3cc(O)ccc3C)c(C)c2)CC1` is recorded as 84% (FLT3 ITD D835V (human); binding, KINOMEscan; 1000 nM).
With `C[n+]1ccc(/C=N/NC(=O)c2ccc3ccc4ccc(C(=O)N/N=C/c5cc[n+](C)c6ccccc56)nc4c3n2)c2ccccc21` the ΔTm was 29.3 ± 0.9 °C (telomeric G4 DNA hybrid-2; FRET melting; 1 µM, DNA 0.2 µM).
`Nc1ncc(-c2cc(-c3cnn(CC(F)(F)F)c3)ncc2F)nc1C(=O)NC1CNCC(F)C1` (stereo not drawn) gave a remaining binding of 57% (IKK-alpha; KINOMEscan competition binding; 1 µM; reference: DMSO control).
The pIC50 of `Fc1ccc(Nc2nc(NC3CCCCC3)c3cc(Br)ccc3n2)cc1F` is reported as 6.4 (β2AR/β1AR TM6 chimera; β-arrestin2 recruitment, antagonist, BRET; with: isoprenaline 1 µM).
`Cc1ccc(S(=O)(=O)N/N=C/c2ccsc2B(O)O)cc1` gave an IC50 of greater than 100 µM (human pancreatic chymotrypsin; enzyme activity, inhibitor).
For `C[n+]1cccc2cc(/C=N/NC(=O)N/N=C/c3ccc4c(ccc[n+]4C)c3)ccc21`, the ΔTm was 3.4 ± 0.2 °C (telomeric G4 DNA hybrid-2; FRET melting; 1 µM, DNA 0.2 µM, with: duplex DNA competitor 10 µM).
`c1ccc(-c2n[nH]cc2-c2ccnc3ccccc23)nc1`: “log2 fold change” -0.02 (SAT4 (Candida albicans); kinase binding, MIB/MS competition; Candida albicans lysate; 10 µM; reference: DMSO).
`C=C1CN(S(=O)(=O)c2ccc(C)cc2)CCCN(Cc2ccccc2)CCCN(S(=O)(=O)c2ccc(C)cc2)C1` — result for “protein level ratio”: 3.27 (AP-2 complex subunit sigma; SILAC mass spectrometry; SUP-T1; 10 µM, 17 h; reference: DMSO over compound (forward)).
With `Nc1ncc2c(n1)-c1c([nH]c3ccc(C4=CCOCC4)cc13)CCC2` the remaining binding was 91% (FLT3 ITD F691L; scanMAX; 1 µM; reference: control).
With `O=C(N/N=C/c1cc[n+](Cc2ccccc2)c2ccccc12)C(=O)N/N=C/c1cc[n+](Cc2ccccc2)c2ccccc12` the ΔTm was 8.7 ± 0.8 °C (telomeric G4 DNA hybrid-2; FRET melting; 1 µM, DNA 0.2 µM).
`CN(C)CCOc1cc(NC(=O)c2cccc(C(=O)Nc3cc(OCCN(C)C)c4ccccc4n3)n2)nc2ccccc12` gave a ΔTm of 10.3 ± 0.5 K (c-myc G-quadruplex DNA; FRET melting; 1 µM, pH 7.4, with: 60 mM potassium).
`O=C(N/N=C/c1ccc(C[n+]2ccccc2)cc1)c1cccc(C(=O)N/N=C/c2ccc(C[n+]3ccccc3)cc2)c1` has a ΔTm of 3.7 ± 0.6 °C (telomeric G4 DNA hybrid-2; FRET melting; 1 µM, DNA 0.2 µM, with: duplex DNA competitor 10 µM).
For `CN(Cc1ccc(/C=C/C(=O)NO)cc1)CC12CC3CC(CC(C3)C1)C2`, “change in whole-brain uptake” read 10 to 40% (HDAC, rat; PET-CT self-blocking; rat, brain; 0-2.0 mg/kg, [11C] tracer, 6 min normalised uptake).
`C=CC(=O)N1[C@@H](c2ccc3c(c2)OCO3)c2[nH]c3ccccc3c2C[C@H]1C(=O)N1CCN(C)CC1`: “log2 fold change” 0.14 (CCNE1 WT-3xFLAG:CDK2 complex; co-IP TMT proteomics, item: CKS2; HEK-293T; 20 µM, 6 h; reference: DMSO).
For `C[n+]1cccc2cc(/C=N/NC(=O)c3cccc(C(=O)N/N=C/c4ccc5c(ccc[n+]5C)c4)c3)ccc21`, the ΔTm was 7.2 ± 0.6 °C (telomeric G4 DNA hybrid-2; FRET melting; 1 µM, DNA 0.2 µM, with: duplex DNA competitor 10 µM).
For `O=C1c2ccc3c4ccc5c6c(ccc(c7ccc(c2c37)C(=O)N1CCN1CCCCC1)c64)C(=O)N(CCN1CCCCC1)C5=O`, the IC50 was 10.7 ± 0.4 µM (telomerase; telomerase activity, inhibitor, TRAP; LNCaP; 48 h).
`C=CC(=O)Nc1cccc(Cn2ncc3cnc(Nc4cnn(CCOC)c4)nc32)c1`: “percent of control” 90% (EPHA2 human; binding, KINOMEscan; 100 nM; lower = stronger binding).
The ΔTm of `C[n+]1ccc(/C=N/NC(=O)c2cccc(C(=O)N/N=C/c3cc[n+](C)c4ccccc34)n2)c2ccccc21` is reported as 30.5 ± 1 °C (telomeric G4 DNA hybrid-2; FRET melting; 1 µM, DNA 0.2 µM, with: duplex DNA competitor 10 µM).
The ΔTm of `CN1CCCNC(=O)c2cccc(c2)C(=O)NCCCN(C)CCCNc2cccc3c2C(=O)c2cccc(c2C3=O)NCCC1` is reported as 13.9 ± 2.3 °C (c-myc G-quadruplex DNA; DNA thermal stabilisation, CD melting; 4.5 µM, pH 7.4, with: 1.5 µM DNA, 5 mM KCl).
`CC[n+]1cccc2cc(/C=N/NC(=O)c3ccc4ccc(C(=O)N/N=C/c5ccc6c(ccc[n+]6CC)c5)nc4n3)ccc21` gave a ΔTm of 16.9 ± 1.5 °C (telomeric G4 DNA hybrid-2; FRET melting; 1 µM, DNA 0.2 µM, with: duplex DNA competitor 10 µM).
The ΔTm of `O=C(Nc1cc(OCCN2CCCC2)c2ccccc2n1)c1cccc(C(=O)Nc2cc(OCCN3CCCC3)c3ccccc3n2)n1` is reported as 8.4 ± 0.9 K (K-ras G-quadruplex DNA; FRET melting; 1 µM, pH 7.4, with: 60 mM potassium).
